Published values from different studies.
Each numbered part is a random draw from the data of one study; scales do not carry over between parts.

Set 1
Target: Sal-like protein 4, full length isoform B (SALL4, Homo sapiens, UniProt Q9UJQ4-2, residues 1-616)
Method: universal PBM
Form: double-stranded DNA, one strand shown
Medium: in vitro
Tested at: not given
Setting: 8-mer, flanks averaged, mean of replicates
Reading: higher = stronger binding
Quantity: E-score
CCACTATA: 0.201
CGGGGCGC: -0.419
CCGAGGGA: -0.319
CCTCGTAA: -0.0312
CTAATCCA: -0.021
GAGACACC: -0.17
GATTATGA: 0.399

Set 2
Target: Prothrombin, mature alpha-thrombin (F2, Homo sapiens, UniProt P00734)
Method: aptamer microarray, sandwich
Form: DNA with 2'F-ANA
Medium: in vitro
Tested at: 200 nM
Setting: whole 15-mer aptamer, many near background
Together with: Cy3 exosite-II aptamer, 400 nM
Reading: higher = stronger binding
Quantity: mean fluorescence intensity
Oligonucleotide: GGTTGGTGTGGTTGG
2'F-ANA at 3 6 7 8 9 11 14 15: 506 a.u.
2'F-ANA at 1 4 5 6 8 9 12 14: 47 a.u.
2'F-ANA at 2 3 4 5 7 9 11 12 14 15: 61.7 a.u.
2'F-ANA at 1 2 5 7 9 12 14: 59 a.u.
2'F-ANA at 1 2 4 6 7 8 10 11 12 15: 81.5 a.u.
2'F-ANA at 1 2 6 7 8 9 10 11 12: 63.8 a.u.

Set 3
Target: Max-binding protein MNT, bHLH-zipper, MAX partner unstated (MNT, Homo sapiens, UniProt Q99583, residues 220-300)
Method: protein-binding microarray
Form: double-stranded DNA, one strand shown
Medium: in vitro
Tested at: not given
Setting: k-mer, scored over probes, only values ≥0.25
Reading: higher = stronger binding
Quantity: E-score
Residues (chain): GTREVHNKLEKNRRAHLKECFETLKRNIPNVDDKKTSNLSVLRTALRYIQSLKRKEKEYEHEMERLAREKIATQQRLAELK
ACGTCACG: 0.292
CGTGCATA: 0.351
AAGCACGC: 0.41
ACGCACAT: 0.405
TGCTAGCA: 0.294
ACACATGC: 0.446
CAGCATGA: 0.322
AAATGTGC: 0.29
CATGTGTA: 0.453

Mixed results
PhoQ, residues 284 288 289 292 302 303 ALSMDL  fold induction (PhoP, residues 12 14 15 18 19 AQALL (Escherichia coli, UniProt P23836); Sort-seq, refers to: YFP reporter; E. coli; PhoQ-PhoP variant library, together with: 10 µM Mg2+; reference: high Mg2+ state, higher = stronger signaling): 35.9

Excerpt of the above (set 1):
CGGGGCGC: -0.419
CCGAGGGA: -0.319
CCTCGTAA: -0.0312
